Published values collected from several papers.
Lines come from different studies, so protocols differ. Numbers after ± are the reported error.

SMILES	test	system	setting	half-life [h]
CCn1c(C)c(Cc2ccc(Cl)c(O[C@H](C)C(=O)O)c2)c2ccc(C(=O)N[C@@H](C)c3ccc(C(C)(C)C)cc3)cc21		human liver microsomes	1 µM, added: microsomes 1 mg/mL	> 1
O=S(=O)(Cl)c1cc(C(F)(F)F)cc(C(F)(F)F)c1	reactivity with N-α-acetyl-lysine, HPLC-MS		pH 10.2	< 0.0167
O=C(NC1CCC(F)(F)CC1)C(c1cncnc1)N(C(=O)C(F)Cl)c1ccc(OC(F)(F)F)cc1 (centres unmarked)		mouse liver microsomes	concentration not given, pH 7.4	> 2.42
C=Cc1c(C)noc1C			pH 7.4	14.5
Cc1cc(C)nc(SCC(=O)Nc2ncc(Cc3cccc4ccccc34)s2)n1		male human serum	150 µM, 37 °C	> 24
N[C@@H](CC(=O)O)C(=O)OC(C(=O)O)c1ccc(Br)cc1[N+](=O)[O-] (mixture of isomers)	hydrolysis, 1H NMR	aqueous citrate-ammonium sulfate, 12.5% DMSO-d6	pH 4.2, room temperature, dark, isomer A	11.2 ± 0.2
Cc1c(Cc2ccc(OC(C)C(=O)O)cc2)c2ccc(C(=O)NC(C)c3ccc(C(C)(C)C)cc3)cc2n1C (mixture of isomers)		mouse liver microsomes	1 µM, added: microsomes 1 mg/mL	> 1
COc1ccc2c(c1)C(=O)C(=C[O-])C2.[Na+]	reactivity with N-α-acetyl-lysine, HPLC-MS		pH 10.2	> 24
C=CC(=O)Nc1cccc(Cn2ncc3cnc(Nc4cnn(CCOC)c4)nc32)c1		CD-1 mouse whole blood	5 µM	1.17
O=C1CCC(N2C(=O)c3ccc(O)cc3C2=O)C(=O)N1 (centres unmarked)	D/H back-exchange, LC-HRMS	0.1 M phosphate buffer in water	pH 7.4, 37 °C, mean of replicates	56
CC1(C)OCCc2cc(C(=O)N3CCC(c4nc(-c5ccccc5)n[nH]4)CC3)ccc21		human liver microsomes	pH 7.4, added: NADPH	0.08
Cc1c(Cc2cccc(OC(C)(C)C(=O)O)c2)c2ccc(C(=O)N[C@@H](C)c3ccc(C(C)(C)C)cc3)cc2n1CC1CCC1		human liver microsomes	1 µM, added: microsomes 1 mg/mL	> 1
N=C(N)NCCC[C@H](NC(=O)[C@@H](CCCNC(=N)N)NC(=O)CS)C(=O)N[C@H](CCCNC(=N)N)C(=O)N[C@@H](CCCNC(=N)N)C(=O)N[C@@H](CS)C(=O)N[C@@H](Cc1ccc2ccccc2c1)C(=O)N[C@@H](Cc1csc2ccccc12)C(=O)N[C@H](Cc1ccc2ccccc2c1)C(=O)N[C@@H](CS)C(=O)NCCOCCOCC(=O)N[C@@H](CCCCNC(=O)c1ccc2c(c1)C(=O)OC21c2ccc3cc(O)ccc3c2Oc2c1ccc1cc(O)ccc21)C(N)=O	UPLC-MS	25% human serum in PBS	100 µM, proteolytic stability	0.9
Cc1nc2cc(C(=O)N[C@@H](C)c3ccc(C(C)(C)C)cc3)ccc2n1Cc1cccc(OC(C)(C)C(=O)O)c1		human liver microsomes		0.721
N=C(N)NCCC[C@@H]1NC(=O)[C@H](CO)NC(=O)[C@@H](NC(=O)[C@H](CO)NC(=O)[C@H](CO)NC(=O)[C@H](Cc2c[nH]c3ccccc23)NC(=O)CNC(=O)[C@H](CO)NC(=O)[C@@H](N)Cc2c[nH]c3ccccc23)CSSC[C@@H](C(=O)NCC(=O)O)NC(=O)[C@H](CO)NC1=O		patients, plasma	intravenous, 5 mg/kg, thrice weekly, geometric mean	0.298
Cc1c(Cc2ccc(Cl)c(O[C@@H](C)C(=O)O)c2)c2ccc(C(=O)N[C@@H](C)c3ccc(C(C)(C)C)cc3)cc2n1CC1CC1		human liver microsomes	1 µM, added: microsomes 1 mg/mL	> 1
O=C(c1ccc(-c2ccccc2)cc1)N1CCCCC1	metabolic stability	human liver microsomes	2 µM, pH 7.4	2.32
